Assay results of several laboratories.
Compare with care: the assays were run in different laboratories. Values joined by “and” are separate records of one study, mostly repeats; a detail may differ. Numbers after ± are the reported error.
DRD4: D(4) dopamine receptor (DRD4, Homo sapiens, UniProt P21917)
Sequence of UniProt P21917 (whole entry, looked up): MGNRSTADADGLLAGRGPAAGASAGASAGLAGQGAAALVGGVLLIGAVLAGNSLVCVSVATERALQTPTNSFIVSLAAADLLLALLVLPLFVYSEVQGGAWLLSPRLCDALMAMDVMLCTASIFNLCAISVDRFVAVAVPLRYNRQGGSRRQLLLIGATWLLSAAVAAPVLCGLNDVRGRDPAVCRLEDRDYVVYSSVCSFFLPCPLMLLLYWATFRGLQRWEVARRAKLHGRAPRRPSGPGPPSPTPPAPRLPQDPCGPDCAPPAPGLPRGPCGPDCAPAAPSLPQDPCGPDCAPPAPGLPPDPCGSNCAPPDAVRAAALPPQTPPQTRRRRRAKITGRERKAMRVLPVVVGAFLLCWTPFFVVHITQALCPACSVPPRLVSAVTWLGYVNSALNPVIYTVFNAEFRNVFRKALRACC
AMY2: Pancreatic alpha-amylase (AMY2, Sus scrofa, UniProt P00690)
Sequence of UniProt P00690 (whole entry, looked up): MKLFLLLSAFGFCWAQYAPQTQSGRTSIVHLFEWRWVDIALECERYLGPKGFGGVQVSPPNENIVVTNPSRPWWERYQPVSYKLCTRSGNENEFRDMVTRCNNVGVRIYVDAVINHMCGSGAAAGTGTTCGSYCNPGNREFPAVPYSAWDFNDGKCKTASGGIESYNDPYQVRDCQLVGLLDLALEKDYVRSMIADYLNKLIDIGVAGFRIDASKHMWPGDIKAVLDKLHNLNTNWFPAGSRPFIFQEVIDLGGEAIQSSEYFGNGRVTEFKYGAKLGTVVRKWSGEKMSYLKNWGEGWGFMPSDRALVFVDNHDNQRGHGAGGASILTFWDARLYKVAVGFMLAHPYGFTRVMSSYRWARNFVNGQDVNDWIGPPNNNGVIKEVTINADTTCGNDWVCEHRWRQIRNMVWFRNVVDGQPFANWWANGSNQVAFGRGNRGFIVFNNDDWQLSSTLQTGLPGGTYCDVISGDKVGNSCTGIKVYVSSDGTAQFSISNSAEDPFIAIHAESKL
HDAC11: Histone deacetylase 11 (HDAC11, Homo sapiens, UniProt Q96DB2)
Sequence of UniProt Q96DB2 (whole entry, looked up): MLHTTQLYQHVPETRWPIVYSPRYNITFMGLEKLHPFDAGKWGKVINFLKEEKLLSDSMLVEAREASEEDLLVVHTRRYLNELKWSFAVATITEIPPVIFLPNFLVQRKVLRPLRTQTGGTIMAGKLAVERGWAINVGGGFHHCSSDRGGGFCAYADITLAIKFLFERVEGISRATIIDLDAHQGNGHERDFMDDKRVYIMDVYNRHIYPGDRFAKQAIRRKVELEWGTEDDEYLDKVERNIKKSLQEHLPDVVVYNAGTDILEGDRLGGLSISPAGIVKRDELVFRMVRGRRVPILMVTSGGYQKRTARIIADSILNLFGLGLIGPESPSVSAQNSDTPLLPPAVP
SCN5A: Sodium channel protein type 5 subunit alpha (SCN5A, Homo sapiens, UniProt Q14524)
Sequence of UniProt Q14524 (whole entry, looked up): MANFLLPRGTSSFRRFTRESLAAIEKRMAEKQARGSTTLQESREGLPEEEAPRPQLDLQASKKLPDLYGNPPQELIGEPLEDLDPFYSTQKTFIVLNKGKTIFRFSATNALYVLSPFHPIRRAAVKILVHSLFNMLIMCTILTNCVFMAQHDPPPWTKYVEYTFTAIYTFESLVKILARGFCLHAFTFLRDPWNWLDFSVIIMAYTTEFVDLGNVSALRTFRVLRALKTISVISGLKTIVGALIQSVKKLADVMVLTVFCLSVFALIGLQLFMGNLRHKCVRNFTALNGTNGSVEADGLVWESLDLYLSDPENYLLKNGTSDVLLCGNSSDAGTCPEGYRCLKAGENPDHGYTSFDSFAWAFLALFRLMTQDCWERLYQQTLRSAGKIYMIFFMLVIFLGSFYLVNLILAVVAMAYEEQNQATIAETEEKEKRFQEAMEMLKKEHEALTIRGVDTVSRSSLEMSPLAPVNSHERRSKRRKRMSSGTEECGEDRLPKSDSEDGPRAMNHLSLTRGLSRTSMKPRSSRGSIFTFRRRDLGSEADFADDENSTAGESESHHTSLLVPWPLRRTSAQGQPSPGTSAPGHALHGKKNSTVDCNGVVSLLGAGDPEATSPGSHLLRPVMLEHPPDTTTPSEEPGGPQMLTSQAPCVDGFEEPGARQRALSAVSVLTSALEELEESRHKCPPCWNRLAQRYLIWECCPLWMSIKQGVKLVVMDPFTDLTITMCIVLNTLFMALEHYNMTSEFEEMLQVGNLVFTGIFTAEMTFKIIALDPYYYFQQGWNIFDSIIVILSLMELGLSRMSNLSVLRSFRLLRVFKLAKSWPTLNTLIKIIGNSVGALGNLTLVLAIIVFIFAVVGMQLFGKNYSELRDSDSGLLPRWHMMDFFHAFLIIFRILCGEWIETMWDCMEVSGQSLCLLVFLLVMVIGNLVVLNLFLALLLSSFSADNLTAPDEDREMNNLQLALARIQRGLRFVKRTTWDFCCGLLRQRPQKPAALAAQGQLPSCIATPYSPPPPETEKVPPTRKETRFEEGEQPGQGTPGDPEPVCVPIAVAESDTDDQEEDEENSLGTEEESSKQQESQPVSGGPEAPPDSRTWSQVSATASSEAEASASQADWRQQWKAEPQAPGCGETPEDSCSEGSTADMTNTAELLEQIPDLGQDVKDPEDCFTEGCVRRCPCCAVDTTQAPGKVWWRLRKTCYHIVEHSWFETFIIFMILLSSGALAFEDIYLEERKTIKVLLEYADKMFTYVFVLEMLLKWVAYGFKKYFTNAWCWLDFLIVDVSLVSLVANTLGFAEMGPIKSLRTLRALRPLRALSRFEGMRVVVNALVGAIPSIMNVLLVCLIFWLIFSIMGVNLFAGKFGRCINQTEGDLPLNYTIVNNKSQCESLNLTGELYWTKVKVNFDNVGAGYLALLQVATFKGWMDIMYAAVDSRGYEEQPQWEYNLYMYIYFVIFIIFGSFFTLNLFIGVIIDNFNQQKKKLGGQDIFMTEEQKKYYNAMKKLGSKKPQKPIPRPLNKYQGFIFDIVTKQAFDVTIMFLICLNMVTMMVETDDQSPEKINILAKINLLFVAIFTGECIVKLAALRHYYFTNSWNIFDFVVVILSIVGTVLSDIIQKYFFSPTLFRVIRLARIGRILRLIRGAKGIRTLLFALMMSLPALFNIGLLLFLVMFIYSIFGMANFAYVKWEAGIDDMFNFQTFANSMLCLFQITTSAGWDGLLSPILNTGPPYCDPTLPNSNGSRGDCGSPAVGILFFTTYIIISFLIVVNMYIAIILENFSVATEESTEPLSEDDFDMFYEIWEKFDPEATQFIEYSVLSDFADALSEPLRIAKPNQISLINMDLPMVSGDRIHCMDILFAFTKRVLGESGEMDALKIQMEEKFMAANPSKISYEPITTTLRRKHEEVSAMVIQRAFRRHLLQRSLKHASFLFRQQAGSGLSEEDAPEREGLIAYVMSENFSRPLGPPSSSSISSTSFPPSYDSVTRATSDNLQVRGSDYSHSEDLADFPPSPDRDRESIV
Sequence of UniProt Q8IWT6 (whole entry, unmodified, looked up): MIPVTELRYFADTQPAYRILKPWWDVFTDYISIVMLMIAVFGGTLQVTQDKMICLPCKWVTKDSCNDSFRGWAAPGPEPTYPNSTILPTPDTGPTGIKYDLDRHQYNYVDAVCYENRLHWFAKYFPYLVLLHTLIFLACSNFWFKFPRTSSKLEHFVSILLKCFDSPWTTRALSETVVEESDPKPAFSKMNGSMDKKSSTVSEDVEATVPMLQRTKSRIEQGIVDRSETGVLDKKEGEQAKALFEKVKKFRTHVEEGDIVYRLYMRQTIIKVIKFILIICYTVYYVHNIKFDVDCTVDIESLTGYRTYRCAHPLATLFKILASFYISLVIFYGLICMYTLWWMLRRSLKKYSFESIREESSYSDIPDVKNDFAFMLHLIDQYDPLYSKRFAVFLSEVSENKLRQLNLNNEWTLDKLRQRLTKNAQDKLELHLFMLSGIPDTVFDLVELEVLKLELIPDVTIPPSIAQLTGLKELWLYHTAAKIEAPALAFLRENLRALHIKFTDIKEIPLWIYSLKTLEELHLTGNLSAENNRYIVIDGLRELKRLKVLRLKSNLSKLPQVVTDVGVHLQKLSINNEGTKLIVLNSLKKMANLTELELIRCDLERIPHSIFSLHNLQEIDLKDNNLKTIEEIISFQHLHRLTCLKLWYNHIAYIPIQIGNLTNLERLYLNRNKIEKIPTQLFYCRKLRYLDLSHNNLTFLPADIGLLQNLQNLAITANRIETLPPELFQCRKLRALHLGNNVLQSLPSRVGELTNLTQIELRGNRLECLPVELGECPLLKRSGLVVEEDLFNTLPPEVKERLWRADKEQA
Sequence of UniProt P00591 (whole entry, looked up): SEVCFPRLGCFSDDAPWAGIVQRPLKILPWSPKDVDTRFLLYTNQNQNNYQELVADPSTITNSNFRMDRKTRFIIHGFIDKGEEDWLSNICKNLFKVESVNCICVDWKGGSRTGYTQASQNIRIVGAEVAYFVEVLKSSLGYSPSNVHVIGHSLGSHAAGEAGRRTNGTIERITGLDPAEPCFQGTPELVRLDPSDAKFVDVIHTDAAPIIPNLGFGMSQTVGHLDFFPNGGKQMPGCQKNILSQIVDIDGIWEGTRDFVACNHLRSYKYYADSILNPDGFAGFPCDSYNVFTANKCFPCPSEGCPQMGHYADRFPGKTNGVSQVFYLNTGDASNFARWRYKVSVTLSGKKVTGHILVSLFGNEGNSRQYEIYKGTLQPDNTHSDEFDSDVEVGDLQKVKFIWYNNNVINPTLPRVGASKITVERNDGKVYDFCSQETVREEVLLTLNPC
Sequence of UniProt P47898 (whole entry, looked up): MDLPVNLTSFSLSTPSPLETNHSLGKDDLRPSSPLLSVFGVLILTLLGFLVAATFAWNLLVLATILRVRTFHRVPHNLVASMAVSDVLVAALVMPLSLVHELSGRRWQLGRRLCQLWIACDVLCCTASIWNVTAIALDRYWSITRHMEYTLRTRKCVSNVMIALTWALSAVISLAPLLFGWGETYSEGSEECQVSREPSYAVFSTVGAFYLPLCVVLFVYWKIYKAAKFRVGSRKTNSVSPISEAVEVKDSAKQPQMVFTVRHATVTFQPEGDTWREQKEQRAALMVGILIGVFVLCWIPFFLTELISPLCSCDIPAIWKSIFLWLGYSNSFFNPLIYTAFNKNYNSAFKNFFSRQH

| Compound | target | assay | test system | conditions | scale | inhibition |
| --- | --- | --- | --- | --- | --- | --- |
| c1ccc(OC[C@@H]2CN(CCN3CCc4ccccc43)CCO2)cc1 | DRD4 | radioligand binding |  | concentration not given, with: [3H]N-methylspiperone |  | 103% |
| Cc1nn(-c2nc3ccccc3s2)c(O)c1C(c1ccccc1C(=O)O)c1c(C)nn(-c2nc3ccccc3s2)c1O | CGAS (Homo sapiens, UniProt Q8N884) | enzyme activity, inhibitor, pyrophosphatase-coupled |  | 25 µM, 1.5 h, with: HT-DNA |  | 91.4% |
| O=c1c(O)c(-c2ccc(O)cc2O)oc2cc(O)cc(O)c12 | AMY2 | enzyme activity, inhibitor |  | 50 µM, with: CNP-G3 substrate |  | 51.8 ± 4.65% |
| OCCCN1CC[C@@H]2C[C@H]1c1cc(-c3ccc(C(F)(F)F)cc3)ccc12 | HTR5A (Homo sapiens, UniProt P47898) | radioligand binding, PDSP competition binding |  | 10 µM |  | < 50% |
| OC[C@H]1OC(O)[C@H](O)[C@@H](O)[C@@H]1O (stereo partly shown) | Hexokinase-3 (HK3, Homo sapiens, UniProt P52790) | enzyme activity, inhibitor, coupled G6PDH |  | 10 mM, full-length enzyme |  | ~40% |
| CCCCCCCCCCC[C@@H](C[C@@H]1OC(=O)[C@H]1CCCCCC)OC(=O)[C@H](CC(C)C)NC=O | PNLIP (Sus scrofa, UniProt P00591) | enzyme activity | porcine | 100 µg/mL, with: 4-MUO |  | 100% |
| O=C(NO)c1cc(F)cc(OS(=O)(=O)Oc2ccc(C(F)(F)F)cc2)c1 | HDAC11 |  |  | 10 µM |  | 48% |
| O=C1c2ccccc2CCN1CCCCN1CCN(c2cccc(Cl)c2Cl)CC1 | DRD4 | radioligand binding |  | concentration not given, with: [3H]N-methylspiperone |  | 100% |
| O=C(NO)c1ccc(CN2CCCCc3ccccc32)c(F)c1 | DRD4 | radioligand binding, radioligand displacement |  | 10 µM |  | -7.97% |
| CCc1oc2ccccc2c1C(=O)c1cc(Br)c(O)c(Br)c1 | SLC22A12 (Homo sapiens, UniProt Q96S37, I156A) | uric acid uptake | HEK293T transfected with SLC22A12 I156A | 0.5 µM, 10 min, 37 °C, mean, with: [14C]urate 200 µM |  | 8.84% |
| COc1cccc(OC[C@@H]2CN(CC(=O)N3CCc4ccccc43)CCO2)c1 | DRD4 | radioligand binding |  | concentration not given, with: [3H]N-methylspiperone |  | 41.9% |
| Cc1cc(-c2ccnc3[nH]cc(F)c23)cc(F)c1[C@@]1(O)[C@H](C)CN(C(=O)CN)C[C@@H]1C | AMPK alpha1 and alpha2 | ATP probe binding, KiNativ, item: Lys1 site | HEK293T cell lysate | 10 µM |  | 73.2% |
| Cc1ncccc1OC[C@@H]1CN(CCN2CCc3ccccc32)CCO1 | DRD4 | radioligand binding |  | concentration not given, with: [3H]N-methylspiperone |  | 92.7% |
| O=C(NO)c1cccc(OS(=O)(=O)Oc2ccc(-n3ccnc3)cc2)c1 | HDAC11 |  |  | 10 µM |  | 33% |
| Cc1cc(=O)oc2ccc(-c3cc(-c4cccs4)nc(N)n3)c(O)c12 | AMY2 | enzyme activity, inhibitor |  | concentration not given |  | 64.3 ± 1.24% |
| Cc1nc2sccn2c(=O)c1CCN1CCC(=C(c2ccccc2)c2ccc(F)cc2)CC1 | Diacylglycerol kinase gamma (Dgkg, Rattus norvegicus, UniProt P49620) | enzyme activity, DAG kinase | HEK293T lysate overexpressing | 50 µM, with: [γ32P]-ATP | reference: DMSO control | ~70% |

| Compound | target | assay | test system | conditions | scale | inhibition |
| --- | --- | --- | --- | --- | --- | --- |
| Cc1ccnc(C)c1OC[C@H]1CN(CCN2CCc3ccccc32)CCO1 | DRD4 | radioligand binding |  | concentration not given, with: [3H]N-methylspiperone |  | 54.6% |
| CC(C)c1cccc(OS(=O)(=O)Oc2cc(F)cc(C(=O)NO)c2)c1 | HDAC11 |  |  | 10 µM |  | 9% |
| Cc1cc2c(cc1N1C(=O)c3cccc4c(CCCO)ccc(c34)C1=O)n(C)c(=O)n2C (racemic) | Protein polybromo-1, BD5 (PBRM1, Homo sapiens, UniProt Q86U86) | binding, BROMOscan binding |  | 1000 nM |  | 70% |
| c1cncc(OC[C@H]2CN(CCN3CCc4ccccc43)CCO2)c1 | DRD4 | radioligand binding |  | concentration not given, with: [3H]N-methylspiperone |  | 61.8% |
| NC(=O)c1ncn([C@@H]2O[C@H](CO[P@@](=O)(O)O[P@](=O)(O)OP(=O)(O)O)[C@@H](O)[C@H]2O)n1 | Non-structural polyprotein pORF1, helicase domain (Hepatitis E virus genotype 1, UniProt P33424) | ATPase activity, inhibitor, colorimetric |  | 14 µM, with: ATP 100 µM |  | 12.5% |
| C=C1C(=O)O[C@@H]2C[C@@]3(C)CCCC(=C)[C@@H]3C[C@H]12 | TLR2 (Homo sapiens, UniProt O60603) | SEAP reporter gene, antagonist | HEK-Blue hTLR2 | 10 µM, with: Pam3CSK4 |  | > 90% |
| NC/C(=C\F)COc1cccc(Cn2c(=S)[nH]c(=O)c3[nH]cnc32)c1 | SCN5A | peak sodium current, inhibitor, automated patch clamp |  | 100 µM, pulse 9, single recording |  | 25.5% |
| O=C(CN1CCO[C@H](COc2cccnc2)C1)N1CCc2ccccc21 | HTR2B (Homo sapiens, UniProt P41595) | radioligand binding |  | concentration not given, with: [3H]LSD |  | 58.8% |
| O=C(Nc1cccc2c(=O)cc(-c3nnn[nH]3)oc12)c1ccc(OCCCCc2ccccc2)cc1 | LRRC8A/LRRC8C (Homo sapiens, UniProt Q8IWT6+Q8TDW0, M48D/T48D) | ion current, whole-cell patch clamp | HCT LRRC8-/- cells | 0.1 µM, -100 mV, T48D/M48D heteromers |  | 0.307% and -1.41% and -0.686% |
| COC(=O)[C@@H]1[C@H]2C[C@H]3c4[nH]c5ccccc5c4CCN3C[C@@H]2CC[C@@H]1O | rat α2-Adrenergic receptor | binding |  | 1 × 10 µM |  | 90.9% |
| Cc1cc(O)c(-c2ccc([C@@H](C)CN(C)C)cc2)c2c1[nH]c(=O)c1sccc12 | Non-receptor tyrosine-protein kinase TYK2, JH2 pseudokinase domain (TYK2, Homo sapiens, UniProt P29597) | inhibitor, KiNativ probe labelling | cell lysate | 0.1 µM |  | 6.97% |
| Cc1ccc(C(=O)Nc2ccc3ccccc3c2)o1 | SCN5A | ion current, inhibitor, whole-cell patch clamp |  | 10 µM |  | 9.9% and 15.5% and 17.3% and 14.7% and 16.8% |
| CN1CC(Oc2cnc(C#N)cc2-c2ccn3nc(NC(=O)C4CC4)cc3c2)C1 | DMPK (Homo sapiens, UniProt Q09013) | inhibitor, KinaseProfiler panel |  | 1 µM |  | -2% |
| COc1cc2c(cc1OC)C(=O)N(CCCCN1CCN(c3ccccc3OC)CC1)C2 | DRD4 | radioligand binding |  | concentration not given, with: [3H]N-methylspiperone |  | 91.6% |
| CC[C@@H]1[C@H](F)C(=O)N[C@@H]1COc1nccc2cc(C(N)=O)c(OC)cc12 | PRPF4B (Homo sapiens, UniProt Q13523) | ATP-site probe binding, ActivX profiling | THP-1 cell lysate | 0.2 mM, Lys1 site |  | 29.8% |

For quick reference, copied from above:
| Compound | target | assay | test system | conditions | scale | inhibition |
| --- | --- | --- | --- | --- | --- | --- |
| Cc1ccnc(C)c1OC[C@H]1CN(CCN2CCc3ccccc32)CCO1 | DRD4 | radioligand binding |  | concentration not given, with: [3H]N-methylspiperone |  | 54.6% |
| CN1CC(Oc2cnc(C#N)cc2-c2ccn3nc(NC(=O)C4CC4)cc3c2)C1 | DMPK (Homo sapiens, UniProt Q09013) | inhibitor, KinaseProfiler panel |  | 1 µM |  | -2% |
